Measured values of several laboratories.
Parts stem from different laboratories: compare values within a part only. “And” joins repeats or separate records; there may be more than shown.

Study 1
Host: human
Matrix: microsomes or S9
Tested at: 2 µM
Time: 0.5 h
`CCOc1cc2c(cc1CNc1ccnc3c1cnn3C)OC(C)C2` (centres unmarked) gave a remaining compound of 1.32%.
The remaining compound of `c1ccc2c(c1)OCC(c1noc(CCc3c[nH]nn3)n1)O2` (centres unmarked) is reported as 94.7%.
`COC(=O)[C@@H](OC(C)(C)C)c1c(C)nc2c(c1Cl)CCN(Cc1ccc(OC)cc1)C2=O` gave a remaining compound of 35.4%.
`CCOc1cccc(C2c3cccn3-c3sc4c(c3CN2C(=O)Nc2ccc(C)c(F)c2)CCCC4)c1` (centres unmarked) gave a remaining compound of 16.1%.
`CC(C)/N=C1\ON(C(C)C)C(C)(C)N1c1ccccc1` gave a remaining compound of 0.118%.
For `CCCc1cc(O)nc(N2CCN(c3ccc(Cl)cc3)CC2)n1`, the remaining compound was 59.5%.
The remaining compound of `O=C(c1c2c(nc3ccccc13)C(=O)N(C1CCCCC1)C2)N1CCN(C2CCCCC2)CC1` is reported as 34.3%.

Study 2
Cell line: HH
Tested at: 2 µM
Time: 48 h
Baseline: untreated
`CO[C@H]1C[C@@H]2CC[C@@H](C)[C@@](O)(O2)C(=O)C(=O)N2CCCC[C@H]2C(=O)O[C@H]([C@H](C)C[C@@H]2CC[C@@H](OC(=O)C(C)(CO)CO)[C@H](OC)C2)CC(=O)[C@H](C)/C=C(\C)[C@@H](O)[C@@H](OC)C(=O)[C@H](C)C[C@H](C)/C=C/C=C/C=C/1C` gave a viability of 43.2%.
For `CO[C@H]1C[C@@H]2CC[C@@H](C)[C@@](O)(O2)C(=O)C(=O)N2CCCC[C@H]2C(=O)O[C@H]([C@H](C)C[C@@H]2CC[C@@H](OP(C)(C)=O)[C@H](OC)C2)CC(=O)[C@H](C)/C=C(\C)[C@@H](O)[C@@H](OC)C(=O)[C@H](C)C[C@H](C)/C=C/C=C/C=C/1C`, the viability was 34.4%.
`C=CC(=O)N1CCC[C@@H](n2nc(-c3ccc(Oc4ccccc4)cc3)c3c(N)ncnc32)C1` gave a viability of 52.9%.
`COc1ccc(S(=O)(=O)N(CCO)c2ccccc2CN(C)C/C=C/c2ccc(Cl)cc2)cc1` gave a viability of 69.6%.
The viability of `Cc1cnc(-c2cnc(NCCNc3ccc(C#N)cn3)nc2-c2ccc(Cl)cc2Cl)[nH]1` is reported as 105%.
`COc1c(C)c(C(=O)c2ccc(N)c(C(=O)O)c2)n2ccccc12` has a viability of 86.2%.

Study 3
Structure (SMILES): CC(C)(C(=O)O)[C@H](NC(=O)Cc1cccc(I)c1)c1ccc2oc(=O)[nH]c2c1
Cell line: HEK293T
Read-out: protein-protein interaction
Method: NanoBiT
Time: 4 h
Notes: LgBiT-linker-SmBiT control pair
Direction: higher = more interaction
The luminescence signal was 127 a.u. and 120 a.u. and 133 a.u. (30 nM).
The luminescence signal was 113 a.u. and 103 a.u. and 99.5 a.u. (0.04 nM).
It gave 118 a.u. and 129 a.u. and 115 a.u. for luminescence signal (10 nM).

Single results of other studies
With `CC(=O)N[C@@H](Cc1c[nH]c2ccccc12)C(=O)N[C@@H](CCC(=O)C=[N+]=[N-])C(=O)OC(C)C` the sulfate level was 3.18e+06 a.u. and 3.17e+06 a.u. and 2.84e+06 a.u. and 3.28e+06 a.u. and 3.29e+06 a.u. and 2.82e+06 a.u. (UPLC-MS/MS; EL4 tumor, C57BL/6 CES1-/- mice, tumor; subcutaneous, 0.3 mg/kg DON equivalent daily, 5 days; higher = more metabolite).
